# Measured values gathered from unrelated publications.
# A part holds a random share of what one study measured.

# Sample 1 — technique: protein-binding microarray; form: double-stranded DNA, one strand shown; medium: in vitro; concentration: not given; reading: higher = stronger binding
# Target: Protein C-ets-1 (ETS1, Homo sapiens, UniProt P14921, residues 1-441, full length assumed)
# Setting: k-mer, scored over probes, only values ≥0.25
# Residues (chain): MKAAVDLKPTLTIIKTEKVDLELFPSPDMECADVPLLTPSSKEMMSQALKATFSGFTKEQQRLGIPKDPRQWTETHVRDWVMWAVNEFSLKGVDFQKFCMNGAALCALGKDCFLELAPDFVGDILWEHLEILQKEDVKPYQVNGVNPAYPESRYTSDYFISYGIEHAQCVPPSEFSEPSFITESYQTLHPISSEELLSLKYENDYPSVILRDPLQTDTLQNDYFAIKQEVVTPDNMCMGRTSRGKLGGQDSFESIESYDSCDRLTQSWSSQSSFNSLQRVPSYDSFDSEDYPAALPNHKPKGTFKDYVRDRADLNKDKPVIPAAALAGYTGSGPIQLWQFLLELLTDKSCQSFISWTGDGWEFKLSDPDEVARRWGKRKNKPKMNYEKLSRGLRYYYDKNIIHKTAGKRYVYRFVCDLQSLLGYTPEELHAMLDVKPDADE
Oligonucleotide,E-score
TCGGAAGA,0.267
ACGGACGC,0.289
AGGAAACC,0.419
ACTTCCAC,0.4
AGGATCCG,0.256
GCGCCGGA,0.401
AACCCGGA,0.354
CCGGGGCC,0.267
GGGGCGGA,0.388

# Sample 2 — technique: RNA Bind-n-Seq; form: RNA; medium: in vitro; concentration: 1 µM; setting: whole 134-nt RNA, ends assumed; together with: 150 mM KCl; relative to: input library; reading: higher = stronger binding
# Target: Ras GTPase-activating protein-binding protein 1, C-terminal RGG region (G3BP1, Homo sapiens, UniProt Q13283)
# Chain of UniProt Q13283 (whole entry, looked up): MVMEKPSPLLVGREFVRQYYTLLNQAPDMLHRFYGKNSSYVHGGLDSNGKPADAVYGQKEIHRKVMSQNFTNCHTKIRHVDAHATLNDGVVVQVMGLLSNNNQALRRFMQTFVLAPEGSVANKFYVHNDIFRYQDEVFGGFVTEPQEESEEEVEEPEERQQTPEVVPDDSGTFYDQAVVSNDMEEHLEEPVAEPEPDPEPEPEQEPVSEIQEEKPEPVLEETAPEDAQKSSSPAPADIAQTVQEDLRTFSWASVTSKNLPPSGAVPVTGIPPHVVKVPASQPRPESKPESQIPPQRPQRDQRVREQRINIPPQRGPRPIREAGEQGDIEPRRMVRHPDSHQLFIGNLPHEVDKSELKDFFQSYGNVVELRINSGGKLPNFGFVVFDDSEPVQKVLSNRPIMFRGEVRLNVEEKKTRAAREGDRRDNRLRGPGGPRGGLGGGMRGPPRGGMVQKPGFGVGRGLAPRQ
# All sequences stand within: GGGAGUUCUACAGUCCGACGAUC … UGGAAUUCUCGGGUGUCAAGG
Oligonucleotide,log2 enrichment
AGUCCUGUGCUACACAUCGUAUGUACCGAAUCGGGUUUUUGGGUUUUUUUGGGUGGGAAAGUAUUAUGUUACGCCGUUCGGAUCUGCACU,0.371
UGUCCAGCUCUGAAGGGCAAAGUGCAGAAGAUCCUAAUCUGGAAGUGGGGUCAGCCACCAUCUCCCACACCAGUGCCUCGGCCUCCAGAU,-0.47
UCCUGUGCUACACAUCGUAUGUACCGAAUCGGCCCCCCGGCCCCCCGGGGCCCCCCGGGAAAGUAUUAUGUUACGCCGUUCGGAUCUGCA,-1.05
UAACUUUAGAGGAGGAUCUGAUGGAUAUGGCAGUGGACGUGGAUUUGGGAAUGGCUAUAAUGGGUAUGGAGGAGGACCUGGAGGUGGCAA,-0.861
AGUCCUGUGCUACACAUCGUAUGUACCGAAUCAAAUUUAAAUUUUUAAAUUUUUAAAAAAGUAUUAUGUUACGCCGUUCGGAUCUGCACU,-2.7
CCUGUGCUACACAUCGUAUGUACCGAAUCGGGGAAAAAAAGGGGUGGGGAAAAAAAGGGGAAAGUAUUAUGUUACGCCGUUCGGAUCUGC,0.194
UCAAGUCCUGUGCUACACAUCGUAUGUACCGAAUCGGGAAAAAGGGAGGGAGGGAAAGUAUUAUGUUACGCCGUUCGGAUCUGCACUUCC,1.96
UAACUUUAGAGGAGGAUCUGAUGGAUAUGGCAGUGGACGUGGAUUUGGGGAUGGCUAUAAUGGGUAUGGAGGAGGACCUGGAGUUGGCAA,-1.01
UCCUGUGCUACACAUCGUAUGUACCGAAUCGGGGCCCCCGGGGCCCCCGGCCCCCGGGGAAAGUAUUAUGUUACGCCGUUCGGAUCUGCA,-1.85
AAGUCCUGUGCUACACAUCGUAUGUACCGAAUCGGAAAAGGGAAAAGGGAAAAGGGGAAAGUAUUAUGUUACGCCGUUCGGAUCUGCACU,-0.881
GUCCUGUGCUACACAUCGUAUGUACCGAAUCGGUUUUUGGGUUUUUGGGUUUUUGGGGAAAGUAUUAUGUUACGCCGUUCGGAUCUGCAC,-0.666

# Sample 3 — technique: RNA Bind-n-Seq; form: RNA; medium: in vitro; concentration: 365 nM; relative to: no-protein control; reading: higher = stronger binding
# Target: RNA binding protein fox-1 homolog 2, RRM domain, GST-SBP tag (RBFOX2, Homo sapiens, UniProt O43251-10, residues 100-194)
# Setting: natural RNA segment, single round, ends assumed
# All sequences stand within: GGGAGUUCUACAGUCCGACGAUC … UGGAAUUCUCGGGUGCCAA
# Residues (chain): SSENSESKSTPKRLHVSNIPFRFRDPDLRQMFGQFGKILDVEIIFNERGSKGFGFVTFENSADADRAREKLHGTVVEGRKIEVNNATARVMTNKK
Oligonucleotide,RBNS enrichment (R)
GAGCUGUGGCUUACUUGCUGUCUUCACCAGGUUCAAGCUCCGUGGGCCACACUGCUGCUGUGCCAAGAAGGUGUACAGCCUCCCCAGGAUGGGGCCUCAUACAACCCUUC,0.339
AGAAAAAACCCGUUUUCAAUUCUAAUGAAACAGCAACAACAUUUUUUUUAAUUAAAAAAAAAAUCAUGUUCUUUGUUUUUCUAAUAAAAUGUUAGGUUGUUUGGUGAGGU,0.673
CCGCCAUGUGCAGGAGCUGGCGGGCUGGCUGCCUUCUGGACCCUGGCUUCUCCCCACCGUGCGCCUGUUACAAACUGUUGUGGAUUCUGCCAGGCUCGAAGAAAAUGAUC,0.557
UUACCCCAGUACUGUUAGAAACAUUUGUACUAGGUUAUAAGAUCUUUCUGUGACAGGUAACAAAUUUGGGGAAGACAGCACAAUCUUCUUGAAUGUAGCUCUUGGGAAUG,0.794
GAGCUCAUGUCCAUGAGCAUCGCACCACGAAUGAUGAGUGUUAGCUGCCAGAAGUUCAUGGUCAGAUACUGUGACUAUCACUAUCUUGUUUCUGUGAUUGUCAUUAAAAA,0.374
AUCUGUUAGCUCUUAAGGCUCUCCUCGAAUAUGGCAGCAUUUGGCCGCCACUCCCUACGCCCACCAUUAGGACCAUCUCUGGGUGGAACAUUUUGUGUGUGCAGACAAGG,0.276
AUGUGGCCUAGUGAAACAUGGAUCUUGUUUAAAAGGCAUCUGAUUUUAUGCAGACACGUGUCUGAAAAAUUAAAAUCCAUUGUCCAAACUUCCAUACAUUAGGUAACGUC,0.34
UCAUCAUGCAGCCUUCUGGGUUGGUUGCUAUAUAUAUCUUUUUUCCUUGAUGUCCCGUUCUCUUCCACAGCCCUGAGGUCUUACGAAUUUUUCUACUUUCUUUUUGCUGU,0.797

# Other studies, line by line
Substance,target,assay,test system,conditions,scale,endpoint,result
"PhoQ, residues 284 288 289 292 302 303 ALSMDL","PhoP, residues 12 14 15 18 19 VQALL (Escherichia coli, UniProt P23836)","Sort-seq, item: YFP reporter",E. coli,"PhoQ-PhoP variant library, together with: 10 µM Mg2+","relative to: high Mg2+ state, higher = stronger signaling",fold induction,10.4
